{"data": "Experimental data gathered from unrelated publications", "note": "Numbered parts are unrelated; each lists some results of a single study."}
{"data": "Study 1", "target": "Histone acetyltransferase KAT6A, both winged helices, GST fusion (KAT6A, Homo sapiens, UniProt Q92794, residues 1-181)", "method": "protein binding microarray", "molecule type": "double-stranded DNA, one strand shown", "sample": "in vitro", "concentration": "not given", "setting": "8-mer, flanks averaged, mean of 2 arrays, mostly near background", "relative to": "not given", "reading": "higher = stronger binding", "Target sequence (chain)": "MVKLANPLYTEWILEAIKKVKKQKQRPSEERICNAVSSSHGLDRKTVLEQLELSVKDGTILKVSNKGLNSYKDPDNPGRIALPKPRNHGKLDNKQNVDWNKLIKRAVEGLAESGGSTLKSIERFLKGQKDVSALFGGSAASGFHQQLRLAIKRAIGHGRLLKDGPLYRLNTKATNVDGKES"}
{"Sequence": "CATCACCA", "E-score": -0.236}
{"Sequence": "CCACCCCC", "E-score": -0.14}
{"Sequence": "AGGCTCCA", "E-score": -0.11}
{"Sequence": "AAATATTC", "E-score": -0.132}
{"Sequence": "CACCCCGC", "E-score": 0.248}
{"Sequence": "TACTTGCA", "E-score": -0.0997}
{"Sequence": "AGTCTCCG", "E-score": 0.195}
{"Sequence": "CTGGAGCC", "E-score": 0.0336}
{"Sequence": "ACCGGTTC", "E-score": 0.113}
{"Sequence": "ATCGTAAG", "E-score": 0.0627}
{"Sequence": "GGAGCTAA", "E-score": -0.16}
{"Sequence": "CACTGTCG", "E-score": 0.0102}
{"Sequence": "ACCCGCGC", "E-score": 0.353}
{"Sequence": "CCACCTGC", "E-score": -0.129}
{"Sequence": "ACCTTAGT", "E-score": -0.179}
{"Sequence": "CATGCAAC", "E-score": -0.0332}
{"Sequence": "CTCATACC", "E-score": -0.142}
{"Sequence": "AGGCTAAA", "E-score": 0.00385}
{"Sequence": "ACGAATGA", "E-score": -0.0576}
{"Sequence": "AAAGGCTG", "E-score": -0.101}
{"Sequence": "AACTTTAA", "E-score": -0.0285}
{"Sequence": "TCGGGTCA", "E-score": 0.2}
{"Sequence": "ATGAATTA", "E-score": -0.061}
{"data": "Study 2", "target": "Interferon regulatory factor 3, full length, phosphomimetic (IRF3, Homo sapiens, UniProt Q14653, residues 1-427, S386D/S396D/S398D/S402D/T404D/S405D)", "method": "protein-binding microarray", "molecule type": "double-stranded DNA, one strand shown", "sample": "in vitro", "concentration": "2540 nM top", "setting": "60-bp whole probe", "together with": "salmon DNA 0.4 mg/ml", "relative to": "random background probes", "reading": "higher = stronger binding", "constant ends, left off below": "GCCTAGCAC … GTCTTGATTCGCTTGACGCTGCTG", "Target sequence (chain)": "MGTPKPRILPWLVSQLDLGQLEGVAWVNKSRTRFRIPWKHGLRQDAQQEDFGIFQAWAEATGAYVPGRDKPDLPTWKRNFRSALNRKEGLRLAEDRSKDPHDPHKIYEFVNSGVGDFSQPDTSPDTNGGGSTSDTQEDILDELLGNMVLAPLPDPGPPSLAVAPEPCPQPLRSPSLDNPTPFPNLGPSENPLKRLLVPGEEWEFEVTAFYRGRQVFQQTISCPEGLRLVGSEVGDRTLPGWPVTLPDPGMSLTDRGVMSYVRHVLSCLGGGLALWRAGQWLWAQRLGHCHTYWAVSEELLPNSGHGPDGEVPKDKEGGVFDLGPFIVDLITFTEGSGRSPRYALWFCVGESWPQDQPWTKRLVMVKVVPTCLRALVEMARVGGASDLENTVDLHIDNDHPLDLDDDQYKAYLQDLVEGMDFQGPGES"}
{"Sequence": "CTATAAAGCATCAGGAAAGCGTGCTAG", "fitted relative affinity [z-score]": -0.186}
{"Sequence": "CCAGACTTGATTTTGGTCTTGTGCTAG", "fitted relative affinity [z-score]": 0.248}
{"Sequence": "CTTTCCTTTGCTTTCTCCCAGTGCTAG", "fitted relative affinity [z-score]": 4.76}
{"Sequence": "TTAGCACTGGGTTTCGGTTAGTGCTAG", "fitted relative affinity [z-score]": 2.94}
{"Sequence": "GACGGTCTCAGTATCGAGACGTGCTAG", "fitted relative affinity [z-score]": 1.32}
{"Sequence": "AAGTGTTTCTCAACCAGTTTGTGCTAG", "fitted relative affinity [z-score]": 1.25}
{"Sequence": "ACGAGTTTCCATTTTCTGAAGTGCTAG", "fitted relative affinity [z-score]": 8.75}
{"Sequence": "GACGGTTTCGACTATCGGTACGTGCTA", "fitted relative affinity [z-score]": 3.07}
{"Sequence": "GACTGTCTCCTACTGCTGACGTGCTAG", "fitted relative affinity [z-score]": 1.13}
{"Sequence": "TTAGGACTGGACTATCGGTAAGTGCTA", "fitted relative affinity [z-score]": -0.381}
{"Sequence": "GACGGACTGCAACTGCTGACGTGCTAG", "fitted relative affinity [z-score]": -0.572}
{"Sequence": "TTAGATATCGGGACCGGATTAGTGCTA", "fitted relative affinity [z-score]": 0.161}
{"Sequence": "GACGGACTGGGTCGCGGGACGTGCTAG", "fitted relative affinity [z-score]": -0.726}
{"Sequence": "TTAGATATCGGGACTGGCTTAGTGCTA", "fitted relative affinity [z-score]": -0.337}
{"Sequence": "TTAGATTTCGGGTTGCGATTAGTGCTA", "fitted relative affinity [z-score]": 1.74}
{"data": "Study 3", "target": "RNA binding protein fox-1 homolog 2, RRM domain, GST-SBP tag (RBFOX2, Homo sapiens, UniProt O43251-10, residues 100-194)", "method": "RNA Bind-n-Seq", "molecule type": "RNA", "sample": "in vitro", "concentration": "365 nM", "setting": "natural RNA segment, single round, ends assumed", "relative to": "no-protein control", "reading": "higher = stronger binding", "constant ends, left off below": "GGGAGUUCUACAGUCCGACGAUC … UGGAAUUCUCGGGUGCCAA", "Target sequence (chain)": "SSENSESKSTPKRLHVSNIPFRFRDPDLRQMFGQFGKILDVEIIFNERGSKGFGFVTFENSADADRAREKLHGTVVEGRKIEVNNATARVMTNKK"}
{"Sequence": "CUGGUACCGUGGAGCUUUAUUUUGCUAUUGAACGCCAAGCUGAAUGUGAGUGACAGGGAACAAUCCCAGCUCUGGGCUCUGCAGAAACUCACAAACUAAACUCCUUUCUG", "RBNS enrichment (R)": 0.584}
{"Sequence": "UUCCCCGUGGGCCUGGGUUACUUUACAUUGAAUAAACACUGUUUGACCCAGUGUUCUGACUUGUACCGGAAAUGUGGAUACUAGUCCAUUGAUGGCGCACACCUUUAAUC", "RBNS enrichment (R)": 0.288}
{"Sequence": "AUGACAAUGACAAGGAAAGCGAUGUGGAGAUUUAAGAGUGGCUUGGGAUGCUGUGUCCCAAGGAAUUUCUUUUCACCUCUUGGUUGGGCUGGAGGGAAAAGGAGUGGCUC", "RBNS enrichment (R)": 0.747}
{"Sequence": "AGACACUGAAACAGGAGAGAGGGACUUCCGUCCACUGGGCAGGGUACAGAUGUGUCUCAGUUGUGAAGGUCUAUUCCUGGCUGCACAGUCCCCAUCCGCUCAGUCAUCUU", "RBNS enrichment (R)": 0.234}
{"Sequence": "AUGGCAAUGGAUUAGAGACUAGUUUGAAAGUAACUCUUCACUGAAAAUAAAGCUAAUUUUAGGAAGAUAAACCCUAUGUGGGCUUGCUUGUACAUCUGACUGUGGCUGCU", "RBNS enrichment (R)": 3.58}
{"Sequence": "AGUAGAAAUCUCAAGGCUUUACCCAGAAGAGCCCAGUCAGGGAGAGGUGUAAAUGCAAAAUUGCCAAAUAGCACAAACAAUGAAUGUUUUCUGGUUGUUAUAUAGAUGCC", "RBNS enrichment (R)": 0.866}
{"Sequence": "GCCCAGGCUCCAGCUCGCCUCCAGUGGAAGCCCGAGCGCCCUCAGAAACGACCCUGGCCAAUGUCAACGCAGAGCCGAGGCGGUGUUGUCACGGCUAAUGUGAAAUCUCU", "RBNS enrichment (R)": 0.515}
{"Sequence": "AAGAUCAAGUGCUGGAGGCCGGAGCCAUCUGUGAGCCUCCCUAAGCCACAGCAGUGAGGAGAUUUGUGUGCUGGGGCACUCAAAAGCCUCUACAAGAUCUUCGUUAAGAG", "RBNS enrichment (R)": 0.362}
{"Sequence": "CUACCAUUGGGAACACAAGGGGCCCCUGAGGGGCCUCCACCUCACUGCCUUAAGUGAGUCCCGCCCACUCCCUGCCUCCCUCCGAGGUGGGCGGGAGUUCCUACCCCAUC", "RBNS enrichment (R)": 0.371}
{"Sequence": "GUUGCAGAUGGGUGAUAUAUAAUGGUAAUAGAAUAGCACAGCCAGACUUGCUUCCUGCAUGGUAGGGAGAGACACAAAAGAUGGGAAACUGCUUUUCCACAAGGAAUCUC", "RBNS enrichment (R)": 3.37}
{"Sequence": "AUGUAUAGUGUACCUCAAUUCACACGACAGCGACAGCCAUGCUCCUGCCGUACAUGGACAUCUGUUCAACGACUCAUAUUUCAACUGUACCCGAGAGGCUAGCUAUUUAA", "RBNS enrichment (R)": 0.475}
{"Sequence": "GCUGGCACAUUGAUCCCAUUUCUGGAACAUUUCCUACUUCCAGAAUUCCGUAUGUUCCUUAGACAUUACCCCCACUUAACCUCCCUUCCUCUGAUAUGCCUUGUAGCUAA", "RBNS enrichment (R)": 1.21}
{"data": "Mixed results"}
{"Substance": "PhoQ, residues 284 288 289 292 302 303 SACGEM", "target": "PhoP, residues 12 14 15 18 19 QQAYL (Escherichia coli, UniProt P23836)", "assay": "Sort-seq, refers to: YFP reporter", "system": "E. coli", "setting": "PhoQ-PhoP variant library, together with: 10 µM Mg2+", "how to read": "relative to: high Mg2+ state, higher = stronger signaling", "endpoint": "fold induction", "value": 2.71}
{"note": "Excerpt of the above (study 1):"}
{"Sequence": "ATCGTAAG", "E-score": 0.0627}
{"Sequence": "GGAGCTAA", "E-score": -0.16}
{"Sequence": "CACTGTCG", "E-score": 0.0102}
{"Sequence": "ACCCGCGC", "E-score": 0.353}
{"Sequence": "CCACCTGC", "E-score": -0.129}
{"Sequence": "ACCTTAGT", "E-score": -0.179}
{"Sequence": "CATGCAAC", "E-score": -0.0332}
{"Sequence": "CTCATACC", "E-score": -0.142}
